Measurements from different studies.
Parts stem from different laboratories: compare values within a part only.

Study 1
Target: Fragile X messenger ribonucleoprotein 1, C-terminal low-complexity region (Fmr1, Mus musculus, UniProt P35922)
Method: RNA Bind-n-Seq
Molecule type: RNA
Matrix: in vitro
Tested at: 200 nM
Notes: whole 134-nt RNA, ends assumed
With: 150 mM LiCl
Relative to: input library
Direction: higher = stronger binding
Each molecule: 7-deaza-guanosine replaces G
All sequences stand within: GGGAGUUCUACAGUCCGACGAUC … UGGAAUUCUCGGGUGUCAAGG
| Oligonucleotide | log2 enrichment |
| --- | --- |
| CUCAAGUCCUGUGCUACACAUCGUAUGUACCGAAUCGGGGAAGGGAAGGAAGGGAAAGUAUUAUGUUACGCCGUUCGGAUCUGCACUUCC | -0.751 |
| UAACUUUAGAGGAGGAUCUGAUGGAUAUGGCAGUGGACGUGGAUUUGGGGAUGGCUAUAAUGGGUAUGGAGGAGGACCUGGAGGUGGCAU | 0.18 |
| GCAGGAAGUAAAAACAAAUGGAAAUGCUUCGGAUAGUGGCAGGGGUGGGGGUUGCUAAGGAAAGUGUGGGAUGGGAGUGGGUAAAGAGUU | 1.47 |
| CUCAAGUCCUGUGCUACACAUCGUAUGUACCGAAUCGGGAAAGGGAGGGAGGGAAAGUAUUAUGUUACGCCGUUCGGAUCUGCACUUCCA | -0.67 |
| GUCCUGUGCUACACAUCGUAUGUACCGAAUCGGGUUUGGGUUUUUGGGUUUUUUUGGGAAAGUAUUAUGUUACGCCGUUCGGAUCUGCAC | -1.08 |
| AGUCCUGUGCUACACAUCGUAUGUACCGAAUCGGGGAAAAGGGAAAAGGAAAAGGGGAAAGUAUUAUGUUACGCCGUUCGGAUCUGCACU | -0.663 |
| GCAGGAAGUAAAAACAAAUGGAAAUGCUUCGGAUAGUGGCAGGGGUGGGGGUUGCUAAGGAAAGGGUGGGAUAGGAGUGGGUAAAGAGUU | 1.44 |
| CUCAAGUCCUGUGCUACACAUCGUAUGUACCGAAUCGGGGCGGGGCGGGGCGGGAAAGUAUUAUGUUACGCCGUUCGGAUCUGCACUUCC | -0.663 |
| ACCAUGCAGGUGCGCAUCUUUGGGAAGUGGGGCAAGGGGGGGAUAGGGAGGGGGGUAACACUUUGGGAACAGGUGGUCCCAGGUCGUUUC | 1.12 |
| UUUCUCCACAGGAGCCCCGCAAGUGAGCCAGCCACUGCGAGAGCAGAGUGAGGAUAUACCUGGAGCCAUUUCCUCUGCCCUGGCAGCCAU | 1.13 |
| GCAGGAAGUAAAAACAAAUGGAAAUGCUUCGGAUAGUGGCAGGGGUGGGGGUUGCUAAGGAAAGGGUGGGAUGCGAGUGGGUAAAGAGUU | 1.38 |

Study 2
Target: Interferon regulatory factor 5, full length, phosphomimetic (IRF5, Homo sapiens, UniProt Q13568-2, residues 1-514, K96S/S451D/S453D/S456D/S462D)
Method: protein-binding microarray
Molecule type: double-stranded DNA, one strand shown
Matrix: in vitro
Tested at: 250 nM
Notes: 60-bp whole probe
With: salmon DNA 0.4 mg/ml
Relative to: random background probes
Direction: higher = stronger binding
All sequences stand within: GCCTAGCAC … GTCTTGATTCGCTTGACGCTGCTG
| Oligonucleotide | log fluorescence [z-score] |
| --- | --- |
| GACGGCATCGGGTTTCGGGACGTGCTA | 1.57 |
| TCAGATATAAATGTAACACTGTGCTAG | 0.732 |
| TTAGAGCTGGGGTTTCGATTAGTGCTA | 4.76 |
| TTAGGTCTCGGTACCGGTTAGTGCTAG | 0.487 |
| TCAAGTCTCAATATTAGACTGTGCTAG | 0.286 |
| GACGATTTTGGGACTGGAGACGTGCTA | -0.184 |
| TATTTTTTTCTAATTGAAATGTGCTAG | 1.43 |
| GAGGGTTTCGGTCTCGGGACGTGCTAG | 8.56 |
| GACGGTATCGGGTATTGGGACGTGCTA | 2.65 |
| TCATTTTTGCAAGCTAAAACTGTGCTA | 0.721 |
| TTAGGTCTCCGTATCCTTTAGTGCTAG | -0.141 |
| TTTAGCAGACTGAGAGGAACGTGCTAG | -0.277 |
| TTAGATATCGCGACTGGATTAGTGCTA | 0.447 |
| GACGATTTCGGGTACCGAGACGTGCTA | 3.8 |
| GACGGTCTCCTACTGCTGATGTGCTAG | -0.0365 |
| TCAGGTTTCTGGTTTATACTGTGCTAG | 1.97 |
| GAAGGTTTCGGGTTTCGGGACGTGCTA | 7.58 |
| GACGGGTTCGGACTGGGGACGTGCTAG | -0.506 |
| GACGATCTCAATATCGAGACGTGCTAG | 0.714 |
| TTAGGTATCGGTCTCGGATAGTGCTAG | 6.77 |
| TTAGGGCTGGGACTGGGTTAGTGCTAG | -0.375 |
| TGGAACTTAAAAGAAAGATAGTGCTAG | 0.683 |
| TTAGTTATCGGGTTTCGGTTAGTGCTA | 8.95 |
| TCACATTTTCATTTTGTACTGTGCTAG | 2.16 |
| GACGTTTTCCTTCTCCTGACGTGCTAG | 0.833 |

Study 3
Target: RNA binding protein fox-1 homolog 2, RRM domain, GST-SBP tag (RBFOX2, Homo sapiens, UniProt O43251-10, residues 100-194)
Method: RNA Bind-n-Seq
Molecule type: RNA
Matrix: in vitro
Tested at: 365 nM
Notes: natural RNA segment, single round, ends assumed
Relative to: no-protein control
Direction: higher = stronger binding
All sequences stand within: GGGAGUUCUACAGUCCGACGAUC … UGGAAUUCUCGGGUGCCAA
Target sequence (chain): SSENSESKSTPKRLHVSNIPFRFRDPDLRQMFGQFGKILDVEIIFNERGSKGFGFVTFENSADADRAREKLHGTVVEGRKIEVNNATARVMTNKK
| Oligonucleotide | RBNS enrichment (R) |
| --- | --- |
| ACAGCAGUGACUCAGAGUGAACUCGGACUGGGACAGAGCUGGACAGAUGGACGUGGUGCACGCCAACGCAGUGUCCCCUCCUAUGGUUAAUAUACUUUCGUUCCAUGGUG | 1.14 |
| GGUUUGAAGGAAAGUUAUUGUCACGUGGUUUGUUUUCCUCAAAAUGAAGGGAUAGGACAAAAGAGACAAUCAAAUAUGGAGCUUAGCAUAGCUAGAAUGGCAUGAUGUCA | 1.79 |
| AGUCUGGCUGAACCCAUUUCCACCUGCAAAGUCUUGUGUUGUGUCUGCAGGCCACACCAGUGGCCACAGGGGCCAUUUUGUCUUGUUGAUGCUGAAACCAUGCUGGACUG | 0.556 |
| GUCACAACAGGGGGUAGCCCUCAAAAGCACUCCUUUUUCUAUACCUCUUCUCAAGGCCAUGUAAGUUGCCCAUCUCUACCUGGCUGUGGACAAAAGGUUAUCUGCUCUUG | 0.371 |
| UUUUCAUAGACAGACGAGGCAACUGCAUAUAGGUUUUGUCUUUAAAACCACCUUUAAUCUAGAUACAUAGACUAACAGUGGAUUUUUUUUAACCCUUUAUCUUUCUGCCC | 0.256 |
| GGGCAUCUUAGAGUUGAUUGAUGGAAAAAGCAGACAGGAACUGGUGGGAGGUCAAGUGGGGAAGUUGGUGAAUGUGGAAUAACUUACCUUUGUGCUCCACUUAAACCAGA | 2 |
| UGGCCAUGUAGAGGAAAAGAUAUGGAGUUAUGUGGAUUUCAUCACUAGUAUGUGUGCGUGAGCUGGUCAGUUGCCAAAGGAGGAAAUAAGGUUAGAAGCCUGAACCGUUA | 3.52 |
| UUAAACUGGGCUGAGGCUGGUAAGACUAUAAAGCAGUGGCCCAUAAGGACUCUUAAGCGUGAGGCCAAGGAGCCACGUCCCUUCCCAGUCUGCCUGGCCCAGGGGGGCUG | 0.432 |
| GGGCUGCGGAAGGUACAAGGCGAGGUUAUGGGGCUGCUCUUCACUUUUUGUUUUUAAAUGAAGACCUCUGAAAAGCACAGGGCCUCUGCUCCUUCUGGCUCUGAUGUCCU | 0.223 |
| CACCUGGCCUGUAGCAAAUAAUUUUUAAGCAUUCUCAAGAUGUAUGAUGUUGGGUUUAACAUCAUAUGUUCACAGUGUUUUAAAUAAGAAAUAAUCUGUCUUUAGUAUAC | 0.523 |
| UCUUUGCGCCCUUCCCGGCUGCUGCCUGGGGCCCUUUCCUGCUCUCCCGUCCGCUGUGGGUGGUCCCCAGCUCUCCUCUGUGGGUUUUACCGGAAAGGUGGCCCCAGCUG | 0.413 |
| CAAAGCAGGGUGGGGUAGGUGACAUUUGUGUAUCCACAUUCUUACCUUUGGUAGUCAGGUUUGGCUACUUUGCAGCUCGCCCAAAGAGAUACAACCUAAUCCCCAACCUA | 0.629 |

Study 4
Target: RING finger protein unkempt homolog, zinc fingers 1-6, GST-SBP tag (UNK, Homo sapiens, UniProt Q9C0B0, residues 30-357)
Sequence of UniProt Q9C0B0 (30-357, looked up): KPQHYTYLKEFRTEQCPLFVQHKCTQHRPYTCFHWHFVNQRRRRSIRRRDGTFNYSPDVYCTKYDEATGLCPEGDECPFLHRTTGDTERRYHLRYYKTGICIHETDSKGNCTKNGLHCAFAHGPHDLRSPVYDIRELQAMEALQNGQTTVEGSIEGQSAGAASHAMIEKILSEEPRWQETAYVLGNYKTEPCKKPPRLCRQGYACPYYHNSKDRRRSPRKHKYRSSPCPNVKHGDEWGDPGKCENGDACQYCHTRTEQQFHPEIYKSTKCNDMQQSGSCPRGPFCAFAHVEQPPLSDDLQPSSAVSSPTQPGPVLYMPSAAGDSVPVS
Method: RNA Bind-n-Seq
Molecule type: RNA
Matrix: in vitro
Tested at: not given
Notes: RNA with constant flanks, human and mouse sites, ends assumed
Relative to: input RNA pool
Direction: higher = stronger binding
All sequences stand within: GGGAGUUCUACAGUCCGACGAUC … CAACAGAGGAUUGAGCAUCA
| Oligonucleotide | bound/input enrichment |
| --- | --- |
| CAAAAGAUCCUGGCUAACUGUUCUUCUCCCUACCAGGUAGACCUGUUUGGUAUAGCAGAUUUAGCACAUUUACUAUUGUUCAAGGAACACCUACAGGUCUUCUGGGAUGGGUCCUUCUGG | 0.838 ratio |
| AAGUGGGGCGAUGAGGUGGAAUACAUGUUGGUAUCUUUUGAUCAUGAAAAUAAAAAAGUCCGGUUGGUCCUGUCUGGGGAGAAAGUUCUUGAAACUCUGCAAGAGAAGGGGGAAAGGACA | 0.651 ratio |
| UUUCUAUUACAUCUGCUUUCAGAAGUCAGCAGCCUCCAUAGAGGGCUACUACUACCAUCGGAGCUCAGAAUGGUAUCAGUCCCUCAACCUGACCCAUGUUCCUGAACACAGUGCACCCAU | 0.201 ratio |
| GAUAUUCUUCUUCUCAUUGUCCGUCUGGCUGUGUUAAUGGCUGUGACCCUGACAGUACCAGUAGUUAUUUUCCCAAUCCGGAGUUCUGUAACUCACUUGUUGUGUGCAUCAAAAGAUUUC | 0.6 ratio |
| CGUUCUGCAUUAAGCCCCAGGUUCUCUUCUGGCUUUGAAAGGGCCCGAGUGCUCCCAGUGUAGCUUCGUCACAUCGUCACGAGCCCCUGUGGUCAUGGGCGACCUCACACCUCCCUCCCU | 0.156 ratio |
| AAGCGUCUUAUUGGACGACGAUAUGAUGACCCUGAAGUACAGAAAGACACUAAGAAUGUUCCUUUUAAAAUUGUCCGUGCCUCCAAUGGUGAUGCUUGGGUUGAGGCUCAUGGAAAACUC | 0.105 ratio |
| GAAGAAGAGUGCAGAGCUCGGAUCCGUUACGCACAAGAGCACGACAUCACUAAUUUCUAUAUGCUCACGCUAGAUAAAGAUCGAAUCAUUGAUGCUGGUCCUAAAGGGAACUACGCACGC | 0.282 ratio |
| CUCUUCUUAAAUUCUACUGCAGGAACAAGUGGGGGUGCUUACGAUCACAGCUAUGUAGAACUUUUUUUGAAUUCUACAGCAGGGGCAAGUGGUGGCGCUUAUGGUAGCCAAAUGAUGGGA | 0.608 ratio |
| UAACUAAGUGGGCUGUUCAGAAGCUUAGAGGUCAUUUUUUGUAAUUUUCUUUUUAAUUACUUUAGAGAGCUAGGGAUGCAAAUGUUUUCAGUUAGAAAGCCUUUAUUUACUUUUGGAAAU | 2.47 ratio |
| AUGCAUUCACUACUCACGCACUAAAGUUUUGCAGUAAGAGAACUUGAGAGACAAAGUAUUAUUUACUAAAACCCAGGUAAUUGUGGAGACCACAGAACACAUACCUUGAAGGGUCUAAGA | 0.389 ratio |
| GUCAUUGAUGUCCUUCAUCCUGGGAAGGCAACAGUACCAAAGACAGAAAUUCGGGAAAAGCUGGCCAAAAUGUACAAAACCACACCAGAUGUCAUCUUUGUAUUUGGAUUCAGAACCCAC | 0.109 ratio |

A few entries again (study 3):
| Oligonucleotide | RBNS enrichment (R) |
| --- | --- |
| UGGCCAUGUAGAGGAAAAGAUAUGGAGUUAUGUGGAUUUCAUCACUAGUAUGUGUGCGUGAGCUGGUCAGUUGCCAAAGGAGGAAAUAAGGUUAGAAGCCUGAACCGUUA | 3.52 |
| AGUCUGGCUGAACCCAUUUCCACCUGCAAAGUCUUGUGUUGUGUCUGCAGGCCACACCAGUGGCCACAGGGGCCAUUUUGUCUUGUUGAUGCUGAAACCAUGCUGGACUG | 0.556 |
| UCUUUGCGCCCUUCCCGGCUGCUGCCUGGGGCCCUUUCCUGCUCUCCCGUCCGCUGUGGGUGGUCCCCAGCUCUCCUCUGUGGGUUUUACCGGAAAGGUGGCCCCAGCUG | 0.413 |
| UUUUCAUAGACAGACGAGGCAACUGCAUAUAGGUUUUGUCUUUAAAACCACCUUUAAUCUAGAUACAUAGACUAACAGUGGAUUUUUUUUAACCCUUUAUCUUUCUGCCC | 0.256 |
